Assay results from different studies.

`Cn1c(=O)oc2ccc(-c3ccc(C[C@@H](C#N)NC(=O)[C@@H]4CNCCCO4)cc3)cc21` gave an AUC(0-last) of 3590 ng·h/mL (human, mild renal impairment, plasma; oral, 25 mg single dose, mean).
`CC(C)NC(=O)COc1cccc(-c2nc(Nc3ccc4[nH]ncc4c3)c3ccccc3n2)c1` gave an AUC(0-last) of 8430 ng·h/mL (human male, plasma; oral, 200 mg, day 5, alone, adjusted geometric mean).
The AUC(0-last) of `CC(C)n1nc(-c2ccc3oc(N)nc3c2)c2c(N)ncnc21` is reported as 2860 ng·h/mL (human, plasma; oral, 30 mg once weekly, cycle 1 day 15).
The AUC(0-last) of `Cc1cc(Nc2cc3ncccc3c(N[C@@H]3C[C@H]4CC[C@@H](C3)N4CCC#N)n2)n[nH]1` is reported as 157 ng·h/mL (human, plasma; 1000 mg single dose, mean).
With `CN(C)C(=O)c1cc2cnc(Nc3ccc(N4CCNCC4)cn3)nc2n1C1CCCC1` the AUC(0-last) was 10800 ng·h/mL (human, severe renal impairment, plasma; oral, 400 mg, single dose, adjusted geometric mean).
The AUC(0-last) of `CCOc1c([C@H](C)n2nc(C)c3c(N)ncnc32)cc(Cl)c(F)c1[C@@H]1CNC(=O)C1` is reported as 6.79 µM·h (human patients; oral, 20 mg, day 1, monotherapy).
`CO[C@H]1C[C@@H]2CC[C@@H](C)[C@@](O)(O2)C(=O)C(=O)N2CCCC[C@H]2C(=O)O[C@H]([C@H](C)C[C@@H]2CC[C@@H](OC(=O)NCCOCCOCCOCCOCCOCCOCCOCCOCCC(=O)N3CCc4cc(Cn5nc(-c6ccc7oc(N)nc7c6)c6c(N)ncnc65)ccc4C3)[C@H](OC)C2)C[C@@H](O)[C@H](C)/C=C(\C)[C@@H](O)[C@@H](OC)C(=O)[C@H](C)C[C@H](C)/C=C/C=C/C=C/1C` has an AUC(0-last) of 486 ng·h/mL (human patients, plasma; intravenous, 10 mg, cycle 1 day 1, 2 h infusion).
For `Cc1noc(C)c1-c1cc(C(O)(c2ccccn2)c2ccccn2)c2nc(C3CC3)[nH]c2c1`, the AUC(0-last) was 4650 ng·h/mL (human male fasted, plasma; oral, 4 mg once daily, cycle 1 day 8).
`CC(F)(F)c1cc(F)ccc1-c1sc2cc(O)ccc2c1Oc1ccc(/C=C/C(=O)O)cc1` gave an AUC(0-last) of 8020 ng·h/mL (human patients, serum; oral, 225 mg twice daily, cycle 1 day 28, regular meal, mean).

For quick reference, copied from above:
With `CN(C)C(=O)c1cc2cnc(Nc3ccc(N4CCNCC4)cn3)nc2n1C1CCCC1` the AUC(0-last) was 10800 ng·h/mL (human, severe renal impairment, plasma; oral, 400 mg, single dose, adjusted geometric mean).
